Measured values pooled from the literature.
Protocols differ between the studies behind these lines. Values joined by “and” are separate records of one study, mostly repeats; a detail may differ. Numbers after ± are the reported error.
Organism: Plasmodium falciparum

Structure (SMILES) | assay | system | conditions | EC50
CCCCOc1ccccc1C(=O)NCc1csc(-c2ccccc2)n1 | parasite growth, SYBR Green | 3D7 DHODH E182D | 72 h | 619 ± 110 nM
CC(C)N(c1ccc(Cl)c(F)c1)c1ccc(NC(=O)CN(C)c2ccccc2N2CCCC2=O)cn1 | parasite growth, LDH | 3D7 population D, CSC1 L954F | 72 h | 11 nM
O=C(Nc1cccc(CN2CCN(C(=O)c3cccc(Cl)c3)CC2)c1)c1ccco1 | parasite growth, SYBR Green | 3D7 DHODH E182D | 72 h | 7480 ± 680 nM
CC[C@](O)(c1cnc(C(F)(F)F)c(Cl)c1)c1c2cnn(C3CC3)c(=O)c2nn1C | parasite growth | 3D7 | – | 1580 nM
CCn1cc(-c2nc(C)no2)c(=O)c2cc(F)c(N3CCC(Cc4ccccc4)CC3)cc21 | parasite growth, [3H]hypoxanthine incorporation | NF54 | 72 h | 6 nM
COCC(=O)N1CCC[C@H](C(=O)NCc2nc(-c3ccc(C#N)cc3)cs2)C1 | – | Dd2 | with: WLW-vs fixed ratio 0.40:0.60 | 6.3 nM and 3.5 nM
Cc1[nH]c2ccc(-c3ccccc3)cc2c(=O)c1Br | parasite growth, SYBR Green | 3D7 wild type | 72 h | 165 ± 41 nM
Cc1ccc(N(C)c2ccc(NC(=O)CN(C)c3ccccc3N3CCCC3=O)cc2)cc1 | parasite growth, LDH | 3D7 population E, L562R mutant | 72 h | 158 nM
O=S(=O)(c1ccc(-c2ccc3ncnc(Nc4ccc(OCc5ccccc5)c(Cl)c4)c3c2)cc1)N1CCOCC1 | parasite growth, SYBR Green fluorescence | C235 (TM91C235), drug-resistant | – | 450 nM
Cc1c(C2(c3ccc(C(F)(F)F)nc3)CC2)c[nH]c1C(=O)NC(C)c1nc[nH]n1 (stereo not shown) | SYBR Green | Uganda field isolates, Albumax medium | 72 h, unbound, ex vivo patient isolates | 3.1 nM
COc1ccccc1Cn1ccnc1SCC(=O)Nc1cc(C(F)(F)F)ccc1Cl | parasite growth | Dd2 | – | 133 ± 11 nM
CC(C)C[C@H](NC(=O)[C@H](Cc1c[nH]c2ccccc12)NC(=O)CN1CCOCC1)C(=O)N[C@H](/C=C/S(C)(=O)=O)Cc1c[nH]c2ccccc12 | – | Dd2 β3 R190S resistant | – | 23 ± 2.9 nM
Cc1nnc(-c2ccc3ccn(CC(=O)Nc4ccccc4Cl)c3c2)o1 | parasite viability, SYBR Green flow cytometry | W2mef multidrug-resistant | 48 h, asexual blood stage | 272 nM
COc1ccc(-c2c(C)nn3c(N)c(C#N)cnc23)cc1OC | parasite growth, [3H]-hypoxanthine incorporation | Dd2, MMV390048-resistant S743T mutant | 72 h | 544 nM
CN(CC(=O)Nc1ccc(N(C)c2ccc(Cl)cc2)cc1)c1ccccc1N1CCCC1=O | parasite growth, LDH | 3D7 population D, CSC1 L954F | 72 h | 263 nM
Cc1noc(-c2cccs2)c1C(=O)NCCc1cccc(Cl)c1 | parasite growth | Dd2 | – | 261 ± 87 nM

Structure (SMILES) | assay | system | conditions | EC50
CCN1CCN(Cc2ccc(Nc3nc4ccc(Oc5ccnc(NC(C)=O)c5)cc4n3C)cc2C(F)(F)F)CC1 | SYBR Green I | Dd2 | 72 h | 2700 ± 100 nM
Cc1ccc(N(c2ccc(NC(=O)CN(C)c3ccccc3N3CCCC3=O)cn2)C(C)C)cc1F | parasite growth, LDH | 3D7 population E, L562R mutant | 72 h | 6 nM
CCOCC(=O)N1CCC[C@H](C(=O)NCc2nc(-c3ccc(C#N)cc3)cs2)C1 | – | Dd2 β5 S27F resistant | – | 19000 ± 7200 nM
Cc1ccc(N(C)c2ccc(NC(=O)CN(C)c3cccnc3N3CCCC3=O)cc2)cc1 | parasite growth, LDH | 3D7 population E, L562R mutant | 72 h | 643 nM
Cc1cn(C2CC2)c(=O)c2nn(C)c(Cc3ccc(C(F)(F)F)nc3)c12 | parasite growth | 3D7 | – | 50.1 nM
Fc1cccc(COc2ccc(Nc3ncnc4ccc(-c5cccc(N6CCOCC6)c5)cc34)cc2Cl)c1 | parasite growth, SYBR Green fluorescence | C235 (TM91C235), drug-resistant | – | 370 nM
CCn1cc(-c2nc(C)no2)c(=O)c2cc(F)c(N3CCC(C)CC3)cc21 | parasite growth, [3H]hypoxanthine incorporation | K1 | 72 h | 13 nM
CC[C@H](C)[C@H](NC(=O)[C@H]([C@@H](C)CC)N(C)C(C)=O)C(=O)N[C@H](C(=O)N[C@@H](CC(C)C)C(=O)[C@@]1(C)CO1)[C@@H](C)O | – | Dd2 β5 S28L resistant | – | 14 ± 1.5 nM
Cc1nc(Nc2ccc(S(F)(F)(F)(F)F)cc2)c2c(C)noc2n1 | parasite growth, SYBR Green | 3D7 wild type | 72 h | 62.9 ± 8.4 nM
Cc1cc(Nc2ccc(S(F)(F)(F)(F)F)cc2)n2nc(C(C)(F)F)nc2n1 | – | Dd2 β3 R190S resistant | – | 6.2 ± 1.3 nM
Cc1cccc(C(=O)N2CCN(Cc3cccc(NC(=O)c4ccco4)c3)CC2)c1 | parasite growth, SYBR Green | 3D7 wild type | 72 h | 335 ± 86 nM
Cc1cc(NC2Cc3cc(F)c(F)cc3C2)n2nc(C(C)(F)F)nc2n1 | parasite growth | D6 | – | 55 nM
O=C(CSc1nnc(O)n1Cc1ccccc1)Nc1ccccc1-c1ccccc1 | parasite growth, SYBR Green | 3D7 wild type | 72 h | 788 ± 99 nM
CCOC(=O)c1cn(CC)c2cc(N3CCC(Cc4ccccc4)CC3)c(F)cc2c1=O | parasite growth, [3H]hypoxanthine incorporation | Dd2 | 72 h | 14 nM
CCN1CCN(Cc2ccc(Nc3nc4ccc(Oc5ccnc(NC(=O)C6CCN(C)CC6)c5)cc4n3C)cc2C(F)(F)F)CC1 | – | Dd2 | 72 h | 100 ± 10 nM

Repeated from above:
Structure (SMILES) | assay | system | conditions | EC50
CC(C)C[C@H](NC(=O)[C@H](Cc1c[nH]c2ccccc12)NC(=O)CN1CCOCC1)C(=O)N[C@H](/C=C/S(C)(=O)=O)Cc1c[nH]c2ccccc12 | – | Dd2 β3 R190S resistant | – | 23 ± 2.9 nM
Cc1nnc(-c2ccc3ccn(CC(=O)Nc4ccccc4Cl)c3c2)o1 | parasite viability, SYBR Green flow cytometry | W2mef multidrug-resistant | 48 h, asexual blood stage | 272 nM
COc1ccc(-c2c(C)nn3c(N)c(C#N)cnc23)cc1OC | parasite growth, [3H]-hypoxanthine incorporation | Dd2, MMV390048-resistant S743T mutant | 72 h | 544 nM
